{"data": "Measurements of several laboratories", "note": "Every numbered part comes from another study and shows a few of its results, in no order. Values joined by “and” are separate records of one study, mostly repeats; a detail may differ.", "UniProt Q6P3R8, sequence (whole entry, looked up)": "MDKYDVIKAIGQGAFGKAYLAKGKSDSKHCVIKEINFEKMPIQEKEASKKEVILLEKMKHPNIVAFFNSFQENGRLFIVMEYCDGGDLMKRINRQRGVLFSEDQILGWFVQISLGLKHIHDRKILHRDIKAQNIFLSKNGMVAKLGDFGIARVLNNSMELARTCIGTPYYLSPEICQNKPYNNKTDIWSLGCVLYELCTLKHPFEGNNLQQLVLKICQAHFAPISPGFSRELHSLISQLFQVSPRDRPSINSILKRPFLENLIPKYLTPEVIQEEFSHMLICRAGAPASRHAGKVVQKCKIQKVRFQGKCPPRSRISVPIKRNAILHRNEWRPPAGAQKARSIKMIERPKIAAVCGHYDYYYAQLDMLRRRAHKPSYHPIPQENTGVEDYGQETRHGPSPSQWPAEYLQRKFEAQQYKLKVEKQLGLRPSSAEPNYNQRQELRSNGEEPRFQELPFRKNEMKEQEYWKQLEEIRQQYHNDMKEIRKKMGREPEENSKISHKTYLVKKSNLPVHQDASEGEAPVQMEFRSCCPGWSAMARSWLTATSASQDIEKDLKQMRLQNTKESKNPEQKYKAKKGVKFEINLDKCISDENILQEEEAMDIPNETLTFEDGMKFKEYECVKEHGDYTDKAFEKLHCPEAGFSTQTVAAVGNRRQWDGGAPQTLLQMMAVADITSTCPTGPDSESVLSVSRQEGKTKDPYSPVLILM", "UniProt Q9HBH9, sequence (whole entry, looked up)": "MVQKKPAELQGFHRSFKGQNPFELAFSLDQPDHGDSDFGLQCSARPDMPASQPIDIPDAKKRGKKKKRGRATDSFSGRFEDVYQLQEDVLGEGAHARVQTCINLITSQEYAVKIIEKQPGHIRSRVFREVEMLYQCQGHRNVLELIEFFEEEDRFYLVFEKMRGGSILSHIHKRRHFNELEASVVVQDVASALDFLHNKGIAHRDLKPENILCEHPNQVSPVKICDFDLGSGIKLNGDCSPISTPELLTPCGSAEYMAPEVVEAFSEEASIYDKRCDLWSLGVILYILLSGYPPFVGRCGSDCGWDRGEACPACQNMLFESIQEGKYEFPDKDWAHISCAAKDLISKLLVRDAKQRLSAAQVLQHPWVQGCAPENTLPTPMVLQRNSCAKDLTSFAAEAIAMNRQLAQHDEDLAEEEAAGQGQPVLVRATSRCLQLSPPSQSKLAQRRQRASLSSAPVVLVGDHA", "UniProt Q9H1R3, sequence (whole entry, looked up)": "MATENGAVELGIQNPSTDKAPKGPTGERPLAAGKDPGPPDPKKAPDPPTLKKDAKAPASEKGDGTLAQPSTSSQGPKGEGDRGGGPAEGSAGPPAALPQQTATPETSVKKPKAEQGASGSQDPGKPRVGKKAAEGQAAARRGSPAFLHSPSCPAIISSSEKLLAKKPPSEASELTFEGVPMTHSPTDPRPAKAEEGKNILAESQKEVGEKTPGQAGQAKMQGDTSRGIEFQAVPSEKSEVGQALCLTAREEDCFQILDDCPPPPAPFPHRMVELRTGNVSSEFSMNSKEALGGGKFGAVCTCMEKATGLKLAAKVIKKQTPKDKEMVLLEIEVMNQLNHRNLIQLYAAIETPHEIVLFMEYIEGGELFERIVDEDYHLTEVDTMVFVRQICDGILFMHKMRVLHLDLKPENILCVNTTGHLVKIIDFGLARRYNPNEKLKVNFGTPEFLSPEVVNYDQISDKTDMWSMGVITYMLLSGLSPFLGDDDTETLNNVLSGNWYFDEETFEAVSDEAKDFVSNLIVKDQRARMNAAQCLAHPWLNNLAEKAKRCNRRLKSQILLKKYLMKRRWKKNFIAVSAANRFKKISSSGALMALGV", "UniProt Q96J92, sequence (whole entry, looked up)": "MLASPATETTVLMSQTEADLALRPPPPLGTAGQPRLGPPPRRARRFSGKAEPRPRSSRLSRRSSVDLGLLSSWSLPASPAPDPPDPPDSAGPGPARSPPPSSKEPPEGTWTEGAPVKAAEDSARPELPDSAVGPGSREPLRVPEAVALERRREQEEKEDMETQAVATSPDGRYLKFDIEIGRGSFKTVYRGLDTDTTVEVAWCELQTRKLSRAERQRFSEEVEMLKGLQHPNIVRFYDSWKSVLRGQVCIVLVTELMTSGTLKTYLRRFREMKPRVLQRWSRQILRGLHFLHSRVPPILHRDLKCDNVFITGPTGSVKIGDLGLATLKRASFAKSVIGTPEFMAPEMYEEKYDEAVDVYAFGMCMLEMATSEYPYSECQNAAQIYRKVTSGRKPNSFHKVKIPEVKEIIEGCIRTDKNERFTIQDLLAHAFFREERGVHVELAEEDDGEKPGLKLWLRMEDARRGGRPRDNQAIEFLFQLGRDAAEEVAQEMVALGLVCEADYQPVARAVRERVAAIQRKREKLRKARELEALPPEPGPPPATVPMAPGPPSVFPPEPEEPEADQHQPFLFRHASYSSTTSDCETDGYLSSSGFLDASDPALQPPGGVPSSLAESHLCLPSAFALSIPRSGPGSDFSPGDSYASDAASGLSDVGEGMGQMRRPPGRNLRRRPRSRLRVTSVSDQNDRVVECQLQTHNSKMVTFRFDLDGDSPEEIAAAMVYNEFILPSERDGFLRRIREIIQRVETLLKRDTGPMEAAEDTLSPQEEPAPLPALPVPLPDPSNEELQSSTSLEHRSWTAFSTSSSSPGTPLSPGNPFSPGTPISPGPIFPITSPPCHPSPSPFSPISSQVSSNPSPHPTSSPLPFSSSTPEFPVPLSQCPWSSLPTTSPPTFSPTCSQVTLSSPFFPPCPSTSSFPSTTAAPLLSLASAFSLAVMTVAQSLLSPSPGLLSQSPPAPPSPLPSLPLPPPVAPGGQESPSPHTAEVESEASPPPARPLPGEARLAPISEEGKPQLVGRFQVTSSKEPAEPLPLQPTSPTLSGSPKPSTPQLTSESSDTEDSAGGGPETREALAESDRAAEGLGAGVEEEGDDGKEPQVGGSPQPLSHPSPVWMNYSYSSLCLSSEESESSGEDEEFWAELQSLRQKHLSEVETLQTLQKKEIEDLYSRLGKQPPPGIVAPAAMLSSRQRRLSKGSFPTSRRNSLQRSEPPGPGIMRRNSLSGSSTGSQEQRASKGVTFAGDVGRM", "UniProt Q09013, sequence (whole entry, looked up)": "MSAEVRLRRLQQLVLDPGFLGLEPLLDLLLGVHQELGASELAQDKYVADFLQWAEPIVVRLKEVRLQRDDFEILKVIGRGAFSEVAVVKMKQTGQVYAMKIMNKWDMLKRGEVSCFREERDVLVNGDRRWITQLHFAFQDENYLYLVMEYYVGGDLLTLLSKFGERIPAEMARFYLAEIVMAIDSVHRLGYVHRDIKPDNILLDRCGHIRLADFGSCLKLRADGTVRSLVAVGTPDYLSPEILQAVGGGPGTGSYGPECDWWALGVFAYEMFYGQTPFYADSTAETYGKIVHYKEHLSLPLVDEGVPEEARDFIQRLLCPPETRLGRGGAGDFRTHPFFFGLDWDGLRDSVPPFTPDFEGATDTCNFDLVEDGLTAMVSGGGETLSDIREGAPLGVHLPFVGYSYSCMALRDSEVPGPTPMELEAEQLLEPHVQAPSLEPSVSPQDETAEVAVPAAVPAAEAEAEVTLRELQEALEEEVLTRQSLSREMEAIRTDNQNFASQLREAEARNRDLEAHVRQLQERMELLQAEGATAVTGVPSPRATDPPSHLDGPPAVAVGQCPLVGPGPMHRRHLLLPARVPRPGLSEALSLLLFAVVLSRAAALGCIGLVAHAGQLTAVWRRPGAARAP", "UniProt O75716, sequence (whole entry, looked up)": "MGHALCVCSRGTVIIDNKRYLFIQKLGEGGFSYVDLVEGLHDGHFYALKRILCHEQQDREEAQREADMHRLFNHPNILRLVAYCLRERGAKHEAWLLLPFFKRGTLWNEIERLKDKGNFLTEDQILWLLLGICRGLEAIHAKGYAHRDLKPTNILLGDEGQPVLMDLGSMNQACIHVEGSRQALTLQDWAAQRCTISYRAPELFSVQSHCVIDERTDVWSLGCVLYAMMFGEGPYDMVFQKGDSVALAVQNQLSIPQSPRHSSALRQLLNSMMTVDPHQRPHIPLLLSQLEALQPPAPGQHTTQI", "UniProt P27037, sequence (whole entry, looked up)": "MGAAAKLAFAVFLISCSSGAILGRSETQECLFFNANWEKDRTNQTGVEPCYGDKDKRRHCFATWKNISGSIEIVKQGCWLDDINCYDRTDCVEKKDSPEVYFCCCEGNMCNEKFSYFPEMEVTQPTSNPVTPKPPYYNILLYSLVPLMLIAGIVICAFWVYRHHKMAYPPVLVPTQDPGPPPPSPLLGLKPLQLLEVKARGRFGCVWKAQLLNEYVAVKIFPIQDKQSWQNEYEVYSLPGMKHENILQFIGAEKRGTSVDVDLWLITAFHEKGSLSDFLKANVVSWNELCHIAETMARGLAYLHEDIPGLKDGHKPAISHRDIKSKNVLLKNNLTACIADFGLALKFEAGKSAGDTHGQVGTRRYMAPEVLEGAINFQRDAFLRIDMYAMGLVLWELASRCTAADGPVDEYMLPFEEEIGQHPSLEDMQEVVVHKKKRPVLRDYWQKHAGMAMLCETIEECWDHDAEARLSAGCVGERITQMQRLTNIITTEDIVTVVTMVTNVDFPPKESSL"}
{"data": "Block 1", "Structure (SMILES)": "CO[C@@H]1[C@H](N(C)C(=O)c2ccccc2)C[C@H]2O[C@]1(C)n1c3ccccc3c3c4c(c5c6ccccc6n2c5c31)C(=O)NC4", "read-out": "enzyme activity", "mode": "inhibitor", "concentration": "1 µM"}
{"target": "Activin receptor type-2A (ACVR2A, Homo sapiens, UniProt P27037)", "inhibition [%]": 0}
{"target": "Serine/threonine-protein kinase WNK3 (WNK3, Homo sapiens, UniProt Q9BYP7)", "inhibition [%]": 0}
{"target": "Serine/threonine-protein kinase Chk2 (CHEK2, Homo sapiens, UniProt O96017)", "inhibition [%]": 6}
{"target": "Casein kinase II subunit alpha (CSNK2A1, Homo sapiens, UniProt P68400)", "inhibition [%]": 12}
{"target": "Hepatocyte growth factor receptor (MET, Homo sapiens, UniProt P08581, Y1235D)", "inhibition [%]": 42}
{"target": "Serine/threonine-protein kinase WNK4 (WNK4, Homo sapiens, UniProt Q96J92)", "inhibition [%]": 5}
{"target": "Phosphatidylinositol 4,5-bisphosphate 3-kinase catalytic subunit alpha isoform (PIK3CA, Homo sapiens, UniProt P42336)", "inhibition [%]": 24}
{"target": "Mitogen-activated protein kinase kinase kinase 1 (MAP3K1, Homo sapiens, UniProt Q13233)", "inhibition [%]": 8}
{"target": "Serine/threonine-protein kinase MRCK alpha (CDC42BPA, Homo sapiens, UniProt Q5VT25)", "inhibition [%]": 0}
{"data": "Block 2", "target": "Serine/threonine-protein kinase NLK (NLK, Homo sapiens, UniProt Q9UBE8)", "read-out": "enzyme activity", "mode": "inhibitor", "concentration": "0.5 µM", "reference": "control", "UniProt Q9UBE8, sequence (whole entry, looked up)": "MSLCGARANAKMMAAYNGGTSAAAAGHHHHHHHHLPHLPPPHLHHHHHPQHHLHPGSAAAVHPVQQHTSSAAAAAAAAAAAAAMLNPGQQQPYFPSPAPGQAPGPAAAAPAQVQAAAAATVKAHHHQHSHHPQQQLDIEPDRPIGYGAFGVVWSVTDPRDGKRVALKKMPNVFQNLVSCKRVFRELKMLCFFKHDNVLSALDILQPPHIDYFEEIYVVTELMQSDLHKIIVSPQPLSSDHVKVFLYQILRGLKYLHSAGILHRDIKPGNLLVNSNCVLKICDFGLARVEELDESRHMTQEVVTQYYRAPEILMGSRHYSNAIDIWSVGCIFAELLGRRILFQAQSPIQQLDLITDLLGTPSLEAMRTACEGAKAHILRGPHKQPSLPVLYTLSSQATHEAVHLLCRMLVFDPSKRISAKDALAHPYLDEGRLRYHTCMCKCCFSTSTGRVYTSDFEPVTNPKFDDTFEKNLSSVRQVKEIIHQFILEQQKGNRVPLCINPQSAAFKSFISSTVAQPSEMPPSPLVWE"}
{"SMILES": "CC(C)n1cnc2c(Nc3cccc(Cl)c3)nc(NCCO)nc21", "remaining activity [%]": 102}
{"SMILES": "NC(=O)c1ccc(-c2nc(-c3ccc4c(c3)OCCO4)c(-c3ccccn3)[nH]2)cc1", "remaining activity [%]": 103}
{"SMILES": "O=C(O)/C=C/c1cc(Br)c(Br)c(Br)c1Br", "remaining activity [%]": 99.1}
{"SMILES": "NC(=O)c1cccc(-c2cc(Nc3ccc(OC(F)(F)F)cc3)ncn2)c1", "remaining activity [%]": 93.4}
{"SMILES": "N#C/C(=C(/N)SC1C=CC=CC1)c1cccc(C(O)c2ccncc2)c1 (stereo not shown)", "remaining activity [%]": 100}
{"SMILES": "Nc1nc(Nc2ccc(S(N)(=O)=O)cc2)nn1C(=S)Nc1c(F)cccc1F", "remaining activity [%]": 45.1}
{"SMILES": "CNc1cc2c(Nc3cccc(Br)c3)ncnc2cn1", "remaining activity [%]": 84.3}
{"SMILES": "COc1cc2c(Nc3ccc(Br)cc3F)ncnc2cc1OCC1CCN(C)CC1", "remaining activity [%]": 96.2}
{"SMILES": "c1cc(-c2cnn3cc(-c4ccc(OCCN5CCCCC5)cc4)cnc23)ccn1", "remaining activity [%]": 58.1}
{"SMILES": "FC(F)(F)c1ccc(/C=C/c2nc(COc3ccc(CCCCn4ccnn4)cc3)co2)cc1", "remaining activity [%]": 101}
{"SMILES": "O=C1c2ccccc2-c2nc3nnnn3nc21", "remaining activity [%]": 98.2}
{"SMILES": "O=c1c(-c2ccc(F)cc2)c(-c2ccncc2)[nH]n1-c1ccc(Cl)cc1", "remaining activity [%]": 16}
{"SMILES": "COc1cc2c(N3CCN(C(=O)Nc4ccc(OC(C)C)cc4)CC3)ncnc2cc1OCCCN1CCCCC1", "remaining activity [%]": 105}
{"SMILES": "CC(C)N(CCC(=O)c1ccc2ccccc2c1)Cc1ccccc1", "remaining activity [%]": 94.8}
{"SMILES": "O=C1NC(=O)/C(=C/c2ccc3c(c2)OC(F)(F)O3)S1", "remaining activity [%]": 93.8}
{"SMILES": "O=C(c1ccccc1)c1ccc(N2CCOCC2)cc1O", "remaining activity [%]": 97.3}
{"SMILES": "C[C@@H](N)[C@H]1CC[C@H](C(=O)Nc2ccncc2)CC1", "remaining activity [%]": 85.6}
{"SMILES": "CC(C)(C)c1nc2c3cc[nH]c(=O)c3c3cc(F)ccc3c2[nH]1", "remaining activity [%]": 26.1}
{"SMILES": "CCCCc1c(-c2ccc(O)cc2)[nH]c2nccnc12", "remaining activity [%]": 90.3}
{"SMILES": "Clc1ccc(Nc2nnc(Cc3ccncc3)c3ccccc23)cc1", "remaining activity [%]": 99.3}
{"SMILES": "CCN(CC)CCCCN1c2ccccc2Oc2ccc(Cl)cc21", "remaining activity [%]": 101}
{"data": "Block 3", "Compound": "Cc1cc(-n2nc(Cc3cc(F)cc(C(F)(F)F)c3)nc2C)ccc1C(N)=O", "read-out": "cell-free assay", "technique": "competition with immobilised ligand", "concentration": "1 µM"}
{"target": "Non-receptor tyrosine-protein kinase TYK2, JH1 (TYK2, Homo sapiens, UniProt P29597)", "remaining binding [%]": 100}
{"target": "Myotonin-protein kinase (DMPK, Homo sapiens, UniProt Q09013)", "remaining binding [%]": 100}
{"target": "Receptor-type tyrosine-protein kinase FLT3 (FLT3, Homo sapiens, UniProt P36888, D835H)", "remaining binding [%]": 100}
{"target": "Maternal embryonic leucine zipper kinase (MELK, Homo sapiens, UniProt Q14680)", "remaining binding [%]": 100}
{"target": "Serine/threonine-protein kinase 16 (STK16, Homo sapiens, UniProt O75716)", "remaining binding [%]": 91}
{"target": "Epidermal growth factor receptor (EGFR, Homo sapiens, UniProt P00533, del746-750)", "remaining binding [%]": 100}
{"target": "Mitogen-activated protein kinase kinase kinase 3 (MAP3K3, Homo sapiens, UniProt Q99759)", "remaining binding [%]": 94}
{"target": "LIM domain kinase 2 (LIMK2, Homo sapiens, UniProt P53671)", "remaining binding [%]": 95}
{"target": "Serine/threonine-protein kinase Nek5 (NEK5, Homo sapiens, UniProt Q6P3R8)", "remaining binding [%]": 77}
{"target": "Tyrosine-protein kinase ABL1, non-phosphorylated (ABL1, Homo sapiens, UniProt P00519, F317L)", "remaining binding [%]": 100}
{"target": "Mitogen-activated protein kinase kinase kinase kinase 2 (MAP4K2, Homo sapiens, UniProt Q12851)", "remaining binding [%]": 100}
{"target": "MAP kinase-interacting serine/threonine-protein kinase 2 (MKNK2, Homo sapiens, UniProt Q9HBH9)", "remaining binding [%]": 100}
{"target": "Myosin light chain kinase 2, skeletal/cardiac muscle (MYLK2, Homo sapiens, UniProt Q9H1R3)", "remaining binding [%]": 91}
{"target": "MAP/microtubule affinity-regulating kinase 4 (MARK4, Homo sapiens, UniProt Q96L34)", "remaining binding [%]": 77}
{"target": "Epidermal growth factor receptor (EGFR, Homo sapiens, UniProt P00533, L858R)", "remaining binding [%]": 100}
{"data": "Further values, each from its own experiment"}
{"Structure (SMILES)": "CC(=O)N[C@@H](Cc1c[nH]c2ccccc12)C(=O)N[C@@H](CCC(=O)C=[N+]=[N-])C(=O)OC(C)C", "assay": "UPLC-MS/MS", "test system": "EL4 tumor, C57BL/6 CES1-/- mice, tumor", "conditions": "subcutaneous, 0.3 mg/kg DON equivalent daily, 5 days", "scale": "higher = more metabolite", "measurement": "pyridoxal level", "result": "9.72e+06 a.u. and 1.12e+07 a.u. and 5.7e+06 a.u. and 8.36e+06 a.u. and 6.74e+06 a.u. and 7.29e+06 a.u."}
{"note": "Excerpt of the above (block 1):"}
{"target": "Activin receptor type-2A (ACVR2A, Homo sapiens, UniProt P27037)", "inhibition [%]": 0}
{"target": "Mitogen-activated protein kinase kinase kinase 1 (MAP3K1, Homo sapiens, UniProt Q13233)", "inhibition [%]": 8}
{"target": "Phosphatidylinositol 4,5-bisphosphate 3-kinase catalytic subunit alpha isoform (PIK3CA, Homo sapiens, UniProt P42336)", "inhibition [%]": 24}
{"target": "Hepatocyte growth factor receptor (MET, Homo sapiens, UniProt P08581, Y1235D)", "inhibition [%]": 42}
{"target": "Serine/threonine-protein kinase WNK3 (WNK3, Homo sapiens, UniProt Q9BYP7)", "inhibition [%]": 0}
{"target": "Casein kinase II subunit alpha (CSNK2A1, Homo sapiens, UniProt P68400)", "inhibition [%]": 12}
